Results from different studies.
Protocols differ between the studies behind these lines. Converted amounts (≈) assume the structure as drawn.
OPRL1: Nociceptin receptor (OPRL1, Homo sapiens, UniProt P41146)

Amino acid sequences for entries named in this document (tags omitted). Residues count along the entry.
UniProt P41146, whole entry: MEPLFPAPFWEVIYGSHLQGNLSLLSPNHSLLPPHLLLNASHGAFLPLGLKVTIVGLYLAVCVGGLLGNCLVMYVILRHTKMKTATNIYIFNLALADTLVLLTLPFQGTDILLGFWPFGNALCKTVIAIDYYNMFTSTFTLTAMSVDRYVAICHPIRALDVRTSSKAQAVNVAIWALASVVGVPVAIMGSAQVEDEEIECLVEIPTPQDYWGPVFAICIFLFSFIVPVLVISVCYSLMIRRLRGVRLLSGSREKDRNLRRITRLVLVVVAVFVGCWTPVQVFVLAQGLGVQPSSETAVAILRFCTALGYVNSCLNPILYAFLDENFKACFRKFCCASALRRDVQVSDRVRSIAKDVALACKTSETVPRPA
UniProt P63096, 2-354 partner limits assumed: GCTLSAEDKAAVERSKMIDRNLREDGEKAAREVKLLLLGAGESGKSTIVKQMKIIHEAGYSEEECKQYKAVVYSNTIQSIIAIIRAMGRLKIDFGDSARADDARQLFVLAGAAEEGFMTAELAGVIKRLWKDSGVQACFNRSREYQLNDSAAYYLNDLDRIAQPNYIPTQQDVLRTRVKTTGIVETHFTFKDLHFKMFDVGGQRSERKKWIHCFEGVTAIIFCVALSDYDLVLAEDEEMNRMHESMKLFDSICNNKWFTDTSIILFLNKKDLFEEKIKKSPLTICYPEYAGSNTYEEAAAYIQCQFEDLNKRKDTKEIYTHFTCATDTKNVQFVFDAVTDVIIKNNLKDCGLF
UniProt P62873, whole entry partner: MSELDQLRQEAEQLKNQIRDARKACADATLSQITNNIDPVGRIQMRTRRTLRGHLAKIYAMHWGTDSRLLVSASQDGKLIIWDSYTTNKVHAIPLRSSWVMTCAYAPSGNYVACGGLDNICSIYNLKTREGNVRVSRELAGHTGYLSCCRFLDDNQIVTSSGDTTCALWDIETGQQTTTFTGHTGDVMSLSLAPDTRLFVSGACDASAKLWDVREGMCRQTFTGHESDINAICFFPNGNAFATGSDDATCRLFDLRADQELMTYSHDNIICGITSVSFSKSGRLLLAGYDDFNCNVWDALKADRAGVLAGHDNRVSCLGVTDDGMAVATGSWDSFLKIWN
UniProt P59768, 2-68 partner limits assumed: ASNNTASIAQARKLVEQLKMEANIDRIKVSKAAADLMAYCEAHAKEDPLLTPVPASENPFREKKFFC

O=C(NCc1ccc(F)cc1)C1C(=O)N(O)C(=O)c2cc(C(F)(F)F)ccc21 (centres unmarked) — remaining activity (Lymphocytic choriomeningitis mammarenavirus; minigenome reporter gene; 50 µM; baseline: DMSO): 61%
O=C(NC1CCN(c2ncnc3[nH]cnc23)CC1)c1cccc(NS(=O)(=O)c2ccc(Cl)cc2)c1 — relative infection (SARS-CoV-2; Wuhan-Hu-1; 0.2743 µM; baseline: untreated infected cells): 72.4%
CC[C@H](C)[C@H](NC(=O)[C@H](C)NC(=O)[C@H](CCC(=O)O)NC(=O)[C@H](CCC(=O)O)NC(=O)[C@H](CC(C)C)NC(=O)[C@H](CCCCN)NC(=O)[C@H](CCCCN)NC(=O)[C@H](CCSC)NC(=O)[C@H](CCC(=O)O)NC(=O)[C@H](Cc1ccc(O)cc1)NC(=O)[C@H](CCC(=O)O)NC(=O)[C@H](CC(C)C)NC(=O)[C@H](CC(=O)O)NC(=O)[C@H](CC(C)C)NC(=O)[C@H](Cc1ccccc1)NC(=O)[C@H](Cc1ccc(O)cc1)NC(=O)[C@@H](NC(=O)[C@H](CC(N)=O)NC(=O)[C@@H](NC(=O)[C@H](CCC(N)=O)NC(=O)[C@H](CC(=O)O)NC(=O)[C@H](CC(C)C)NC(=O)[C@@H](N)CO)[C@@H](C)CC)C(C)C)C(=O)N[C@@H](CCCCN)C(=O)N[C@@H](CCCCN)C(=O)N[C@@H](CC(C)C)C(=O)N[C@@H](CCC(=O)O)C(=O)N[C@@H](CCC(=O)O)C(=O)N[C@H](C(=O)N[C@@H](Cc1ccc(O)cc1)C(=O)N[C@H](C(=O)N[C@@H](CC(=O)O)C(=O)N[C@@H](CC(C)C)C(=O)N[C@@H](CCCCN)C(=O)N[C@@H](CCC(=O)O)C(=O)N[C@@H](CC(C)C)C(=O)O)[C@@H](C)CC)[C@@H](C)O — IC50 (SARS-CoV-2 XBB.1.5 pseudovirus; pseudovirus infection, inhibitor, luciferase; Caco-2; 24 h, dual mutations): 0.174 µM
O=C1Cc2ccccc2N1C1CCN([C@@H]2CC[C@H]3CCCc4cccc2c43)CC1 — concentration ratio (OPRL1; calcium mobilization; CHO with Gαqi5; baseline: compound over N/OFQ EC50): 120
CCCC1c2ccccc2C=NN1C(=O)/C=C/c1cc(Cc2cnc(N)nc2N)cc(OC)c1OC (racemic) — MIC (Bacillus anthracis; Sterne): 1 µg/mL (≈ 2.06 µM)
CCOc1ccccc1-c1cc(C(=O)NC/C=C/S(C)(=O)=O)nn1COC — EC50 (Venezuelan equine encephalitis virus; viral replication, nanoluciferase reporter; TC83-nLuc-nsP3): > 10 µM
O=C(Nc1ccc(F)cc1)C1C(=O)N(O)C(=O)c2cc([N+](=O)[O-])ccc21 (centres unmarked) — remaining activity (Lymphocytic choriomeningitis mammarenavirus; minigenome reporter gene; 50 µM; baseline: DMSO): 69.3%
CC[C@H](C)[C@H](NC(=O)[C@H](C)NC(=O)[C@H](CCC(=O)O)NC(=O)[C@H](CCC(=O)O)NC(=O)[C@H](CC(C)C)NC(=O)[C@H](CCCCN)NC(=O)[C@H](CCCCN)NC(=O)[C@H](CCSC)NC(=O)[C@H](CCC(=O)O)NC(=O)[C@H](Cc1ccc(O)cc1)NC(=O)[C@H](CCC(=O)O)NC(=O)[C@H](CC(C)C)NC(=O)[C@H](CC(=O)O)NC(=O)[C@H](CC(C)C)NC(=O)[C@H](Cc1ccccc1)NC(=O)[C@@H](NC(=O)[C@@H](NC(=O)[C@H](CC(N)=O)NC(=O)[C@@H](NC(=O)[C@H](CCC(N)=O)NC(=O)[C@H](CC(=O)O)NC(=O)[C@H](CC(C)C)NC(=O)[C@H](CO)NC(=O)[C@H](CC(C)C)NC(=O)[C@H](CC(=O)O)NC(=O)[C@@H]1CCCN1C(=O)[C@H](C)N)[C@@H](C)CC)C(C)C)[C@@H](C)O)C(=O)N[C@@H](CCCCN)C(=O)N[C@@H](CCCCN)C(=O)N[C@@H](CC(C)C)C(=O)N[C@@H](CCC(=O)O)C(=O)N[C@@H](CCC(=O)O)C(=O)N[C@@H](CO)C(=O)N[C@@H](Cc1ccc(O)cc1)C(=O)N[C@H](C(=O)N[C@@H](CC(=O)O)C(=O)N[C@@H](CC(C)C)C(=O)N[C@@H](CCCCN)C(=O)N[C@@H](CCC(=O)O)C(=O)N[C@@H](CC(C)C)C(=O)O)[C@@H](C)CC — IC50 (SARS-CoV-2 Alpha pseudovirus; pseudovirus infection, inhibitor, luciferase; Caco-2; 24 h): 0.265 µM
CC(C)N1CN(C2c3ccccc3CCc3ccccc32)n2cc(C(=O)O)c(=O)c(O)c2C1=O — selectivity index (Junin virus; HEK-293T; baseline: CC50 over EC50): ≥ 1000
Cc1ccccc1S(=O)(=O)Nc1cccc(C(=O)NC2CCN(c3ncnc4[nH]cnc34)CC2)c1 — relative infection (SARS-CoV-2; Wuhan-Hu-1; 2.469 µM; baseline: untreated infected cells): 49.3%
CNC(=O)CC1C(=O)N(C2CCN([C@H]3CC[C@@H](C(C)C)CC3)CC2)c2ccccc21 (some centres unmarked) — fold lower potency (OPRL1; G protein interaction, BRET; HEK293 membranes; baseline: N/OFQ): 4 fold

Excerpt of the above:
Cc1ccccc1S(=O)(=O)Nc1cccc(C(=O)NC2CCN(c3ncnc4[nH]cnc34)CC2)c1 — relative infection (SARS-CoV-2; Wuhan-Hu-1; 2.469 µM; baseline: untreated infected cells): 49.3%
